# Results collected from several papers.
# Numbered parts are unrelated; each lists some results of a single study. Positions count from the first letter of the parent shown.

# Set 1 — method: RNA Bind-n-Seq; molecule type: RNA; medium: in vitro; tested at: 200 nM; setting: whole 134-nt RNA, ends assumed; with: 150 mM LiCl; relative to: input library; reading: higher = stronger binding; all molecules: 7-deaza-guanosine replaces G
# Target: Ras GTPase-activating protein-binding protein 1, full length (G3BP1, Homo sapiens, UniProt Q13283)
# Sequence of UniProt Q13283 (whole entry, looked up): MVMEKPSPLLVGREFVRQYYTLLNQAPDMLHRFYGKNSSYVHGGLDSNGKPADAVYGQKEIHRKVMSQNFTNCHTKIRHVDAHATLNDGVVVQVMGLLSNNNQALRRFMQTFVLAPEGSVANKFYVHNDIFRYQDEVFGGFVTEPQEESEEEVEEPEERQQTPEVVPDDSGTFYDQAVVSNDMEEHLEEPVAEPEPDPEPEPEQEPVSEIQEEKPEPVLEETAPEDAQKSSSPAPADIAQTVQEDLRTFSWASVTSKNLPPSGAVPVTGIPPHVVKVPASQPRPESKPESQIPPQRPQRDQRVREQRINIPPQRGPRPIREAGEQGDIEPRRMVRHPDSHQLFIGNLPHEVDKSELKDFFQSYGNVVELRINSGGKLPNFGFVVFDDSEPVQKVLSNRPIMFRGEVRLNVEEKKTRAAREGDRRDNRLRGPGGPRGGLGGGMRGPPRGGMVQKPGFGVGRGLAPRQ
# All sequences stand within: GGGAGUUCUACAGUCCGACGAUC … UGGAAUUCUCGGGUGUCAAGG
Sequence,log2 enrichment
CCUCUGGACGAGACCAGCCAGAUGAGCGACCUCCCGGUGAAGGUGAUCCACGUGGAGAGUGGGAAGAUCCUCACAGGCACAGAUGCCCCC,0.438
AAUGCCCACAAGGUCCCUCCCCCAUGGCUGAUUGCCAUGCAGCGAUAUGGACCACCCCCAUCGUAUCCCAACCUGAAAAUCCCUGGGCUG,0.651
ACCAUGCAGGUGGGCAUCUUUGGGAAGUGGGGCAAGGGGGGGAUAGUGAGGGGGGUAACACUUUGGGAACAGGUGGUCCCAGGUCGUUUC,0.326
UCCUGUGCUACACAUCGUAUGUACCGAAUCGGCCCCCCGGGCCCCCCGGGGCCCCCCGGGAAAGUAUUAUGUUACGCCGUUCGGAUCUGC,-1.22
UCAAGUCCUGUGCUACACAUCGUAUGUACCGAAUCGGAAAAAGGUUUUUGGUGGAAAGUAUUAUGUUACGCCGUUCGGAUCUGCACUUCC,-0.452
AGUCCUGUGCUACACAUCGUAUGUACCGAAUCGGGGUUUGGGGUUUUUGGGGAGGGGAAAGUAUUAUGUUACGCCGUUCGGAUCUGCACU,0.455
ACCAUGCAGGUGGGCAUCUUUGGGAAGUGGGGCAAGGGGGGGAUAGGGAGGGGGGUAACACUUUGGCAACAGGUGGUCCCAGGUCGUUUC,0.329
AGUCCUGUGCUACACAUCGUAUGUACCGAAUCGGCCCCCGGCCCCCGGGGCCCCCGGGAAAGUAUUAUGUUACGCCGUUCGGAUCUGCAC,-1.46

# Set 2 — method: DHFR PCA, deep sequencing; medium: yeast; with: (+)-ABA 0.032 µM; relative to: wild-type fitted maximum; reading: higher = stronger binding
# Target: ABI1, truncated, D143A, DHFR fusion (Arabidopsis thaliana)
# Setting: methotrexate growth selection, single substitutions
# Starting sequence: PYL1, truncated, DHFR fusion (Arabidopsis thaliana); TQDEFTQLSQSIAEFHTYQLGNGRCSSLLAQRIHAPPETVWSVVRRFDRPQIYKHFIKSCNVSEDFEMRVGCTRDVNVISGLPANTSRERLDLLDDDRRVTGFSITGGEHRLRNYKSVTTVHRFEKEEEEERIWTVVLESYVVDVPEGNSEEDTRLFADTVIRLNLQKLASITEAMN; partner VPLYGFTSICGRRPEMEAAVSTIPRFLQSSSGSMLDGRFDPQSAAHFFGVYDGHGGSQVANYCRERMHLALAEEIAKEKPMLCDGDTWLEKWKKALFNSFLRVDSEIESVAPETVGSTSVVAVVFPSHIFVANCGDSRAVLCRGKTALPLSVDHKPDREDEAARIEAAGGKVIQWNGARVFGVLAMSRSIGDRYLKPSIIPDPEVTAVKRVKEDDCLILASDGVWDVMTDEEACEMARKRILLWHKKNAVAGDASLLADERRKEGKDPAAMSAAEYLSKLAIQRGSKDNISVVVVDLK
Variant,relative binding score [%]
H55Q,29
E147V,9.73
R90V,4.33
Q7N,16.4
E130V,20.9
R99Q,8.24
F56Y,6.55
D92A,0.896
T101H,-1.75

# Set 3 — method: competition protein-binding microarray; molecule type: double-stranded DNA, one strand shown; medium: in vitro; tested at: 2 µM; with: Pho4 competitor, 0.05 µM; reading: higher = stronger binding; all sequences stand within: … GTCTTGATTCGCTTGACGCTGCTG
# Target: Centromere-binding protein 1, full length, His-tagged (CBF1, Saccharomyces cerevisiae, UniProt P17106, residues 1-351)
# Sequence of UniProt P17106 (whole entry, looked up): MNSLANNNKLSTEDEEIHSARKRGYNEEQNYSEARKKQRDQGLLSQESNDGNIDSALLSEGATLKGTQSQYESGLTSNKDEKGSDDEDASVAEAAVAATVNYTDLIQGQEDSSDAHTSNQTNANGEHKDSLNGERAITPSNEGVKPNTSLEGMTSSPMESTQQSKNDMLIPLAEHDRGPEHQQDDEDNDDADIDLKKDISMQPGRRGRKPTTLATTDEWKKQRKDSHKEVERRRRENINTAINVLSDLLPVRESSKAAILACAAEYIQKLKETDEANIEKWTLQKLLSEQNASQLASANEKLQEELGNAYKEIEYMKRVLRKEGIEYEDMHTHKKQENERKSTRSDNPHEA
# Setting: whole 60-bp probe, lowest competitor level
Sequence,fluorescence intensity [a.u.]
GTCTTGTCTCATTGGTTCGTGGGTGTCCCCACTTCA,87.4
ACCTCAGGGTTTGTGTCTGTGATGGGTTACTCAGCC,59.7
CTAACGAAGGTTTTTCACGTGGGGTACAAGCCAAGT,623
CTTTCCCGATCTTTTCACGTGCTCTTAGCACATTTG,1320
AAAGACAGGACTTCGAACGTGTAGGACTTAGACCAG,64.7
CTGAAGTTGACCGGCCACGGGATTCGTCAAGTATGT,101
GGGATAGCACTCTGAAACGTGTTGAAGTCTCCTTCC,86.6
TTTATATTCTTGTTCCTCGTGGCCGAATGGTTACGG,101
TCTACTGAAATATCGCACGTCACCGGTACCAACGGC,79
GTCAAACTCCAAAGACACGTGCTCCCCTCGGCACCA,1470
CAAAAGCTGGTGTCCCACGTCAAGCCATCAACTTGG,56.2
CTTTCCCGATCTTGCCAAGTGGGTGTAGCACATTTG,63.2
CTAACGAAGGTTTGTATCGTGGGTGACAAGCCAAGT,82.7
GCCAGATAGACCACTGTCGTGCTTTGTTAAGTACAG,65.1
CCAGGGCCAGGGACTCACGTGTGAAGGTCTGCAGCC,495
AGATGATACTGTTTGCACGCAAATATAGGCTTGATT,78.5
ATATGTGTGCGGTTCCACGGGCAGTCGTTTATGTTG,78.6
ATTCTTGGTACTTTAGTCGTGATTGTTTGACATGTC,109

# Further values, each from its own experiment
Molecule,target,assay,system,setting,scale,quantity,value
"PhoQ, residues 284 288 289 292 302 303 NLCILV","PhoP, residues 12 14 15 18 19 AQCLL (Escherichia coli, UniProt P23836)","Sort-seq, item: YFP reporter",E. coli,"PhoQ-PhoP variant library, with: 10 µM Mg2+","relative to: high Mg2+ state, higher = stronger signaling",fold induction,0.368
